Results from different studies.
Parts stem from different laboratories: compare values within a part only. Positions count from the first letter of the parent shown.

Set 1 — technique: DHFR PCA, deep sequencing; medium: yeast; added: (+)-ABA 0.11 µM; reference: wild-type fitted maximum; reading: higher = stronger binding
Target: ABI1, truncated, D143A, DHFR fusion (Arabidopsis thaliana)
Setting: methotrexate growth selection, single substitutions
Parent: PYL1, truncated, DHFR fusion (Arabidopsis thaliana); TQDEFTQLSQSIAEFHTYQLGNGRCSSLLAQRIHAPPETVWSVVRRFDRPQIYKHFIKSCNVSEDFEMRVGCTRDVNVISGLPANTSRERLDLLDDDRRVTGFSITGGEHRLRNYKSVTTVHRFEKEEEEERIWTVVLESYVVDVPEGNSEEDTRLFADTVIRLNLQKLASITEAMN; partner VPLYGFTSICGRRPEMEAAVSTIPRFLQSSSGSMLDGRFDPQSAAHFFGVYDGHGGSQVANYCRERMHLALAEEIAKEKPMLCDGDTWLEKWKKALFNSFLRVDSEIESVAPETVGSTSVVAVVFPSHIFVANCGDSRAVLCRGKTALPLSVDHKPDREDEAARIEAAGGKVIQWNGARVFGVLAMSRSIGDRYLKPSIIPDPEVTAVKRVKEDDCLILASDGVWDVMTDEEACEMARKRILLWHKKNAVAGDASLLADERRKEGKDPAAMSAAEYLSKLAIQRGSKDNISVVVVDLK
Substitution	relative binding score [%]
R99M	89.8
Y53R	2.3
I33P	7.94
R113M	20.1
G107C	2.01
R24I	5.66
R155V	5.53
E127D	51.8
S171M	42.9
L91N	-5.1
R98H	4.05
R98E	-4.33
F124D	14.3
G108E	-1.49
K116P	7.07
Q19N	35.3

Set 2 — technique: RNA Bind-n-Seq; form: RNA; medium: in vitro; concentration: not given; setting: RNA with constant flanks, ends assumed; reference: input RNA pool; reading: higher = stronger binding
Target: RING finger protein unkempt homolog, zinc fingers 1-6, GST-SBP tag (UNK, Homo sapiens, UniProt Q9C0B0, residues 30-357)
UniProt Q9C0B0, sequence (30-357, looked up): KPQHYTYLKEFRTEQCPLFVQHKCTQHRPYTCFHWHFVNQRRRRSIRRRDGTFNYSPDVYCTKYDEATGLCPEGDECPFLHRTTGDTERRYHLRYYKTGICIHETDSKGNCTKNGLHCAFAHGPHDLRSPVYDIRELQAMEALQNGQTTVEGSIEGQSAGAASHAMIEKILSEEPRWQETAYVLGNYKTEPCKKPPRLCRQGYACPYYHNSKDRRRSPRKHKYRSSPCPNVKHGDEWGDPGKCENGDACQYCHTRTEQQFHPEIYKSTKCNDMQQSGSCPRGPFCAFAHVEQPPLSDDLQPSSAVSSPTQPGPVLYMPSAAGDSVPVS
Shared flanks, not repeated: GGGAGUUCUACAGUCCGACGAUC … CAACAGAGGAUUGAGCAUCA
Sequence	bound/input enrichment [ratio]
GAGCUUAAAGAAGUGGAGCCCAAAUUAGCCGCCUGGAUCCAAAAACUUAAUAGCUUUGGCUCCGAUGCCACAGGAACUUUCUUUUCUCGUUAUGGAGCAUCUCUUAAACUGCUUGAUUUU	0.548
CAGCAAAAAAUAAACAAAUUUGCUCGGAAUACGAGUCGAAUCACAGAGCUAAAGGAGGAAACCGAAGUGAAGAAGAAACAUCUCCAGAACUUAGAGGACGCCUGUGAUGACAUCAUGCUG	0.202
ACAGACUUACUAAGAUUAUUUGAAUAUGGAGGUUUUCCACCAGAAGCCAACUAUCUUUUCUCCGGAGAUUAUGUGGACAGAGGAAAGCAGUCUUUGGAAACCAUCUGUUUGCUAUUGGCU	0.816
UAUCUUUACAAGUACCUGUGGAGGCUGAUGGUGAAGGACAUGUCCAAGAUAUACAGCUUGUACCGCACCCUCUUGGCUCAUAAAAAACUACAUAUAAGAAAUUUUGCAGCCGAAAGUUUU	0.247
GACCCAGAAAAUAAUCGGGGACAAGAAUCCUUUCCUAGGACUGCUGGACAAGAGGAUCGCCGUCUAAAAAUUAUCAAAAGAACAAAGAAACCCGACCUGCAGAUCUAUCAGCCUGGACGA	0.591
CACUUGUAUGAAAUAUUCCCUGCAGAGUGAGCAGGAAAUAGGAACAAAGGAAUGGAAUGCUCCGUGGUGGUGGGGGUGCUAUGGGGGGUGGGUGGGAGAGUUGCAGACUUGAGGAGGUUU	1.92
AAGAUUGGGCUUAUUCAGUUUUGCUUAUCUGCUCCCAAAACAGACAUGGAUAAUCAAACCGUGGUUUCUGACUAUGCCCAGAUGGACCGAGUGCUGCGAGAAGAGAGAGCCUAUAUUUUA	0.28
UAAAUUGUUGGAGUUCUUUUAAGAAGAAUAUAAAUUGAUUAUUUUUUUUAUUUAAAGGGACCGUUGAUUCCUGGGGUGUUUUGAAAUUAAGUUGGAAUUAAGUUGCUUAAGCAUAUUUAU	0.458
UAUAAGAACUCUUGCAGUCUUAGAUGUUAUAAAAAUAUAUAUCUGAAUUGUAAGAGUUGUCCGCACAAGUUUUUUUUUUUUUUUUUUUUAAGCACUUGUUUUGGGUACAAGGCAUUUCUG	1.44
CUUUGUUUCUUGGGGCAUUUUUCCUUUUUUUUUUUUUUUUGUUUUUUUUUUACCCCUCCUCCGCUUUAUGCGCUCAGAAACCAAAUUAAACCCCCCCCCCAUGUAACAGGGGGGCAGUGA	6.74
CAGACUGGCAACUGUUUUGUAGCAAGAGCCAUAGGUAGCCUUACUACUUGGGCCUCUUUCCCGUUUUGAAUUAUUUCUAAGCCUUUUGGGUAUGAUUAGAGUGAAAAUGGCAGCCAGCAA	0.551

Set 3 — target: CCNB3, cyclin fold, Cln2 fusion (human); technique: yeast growth competition, sequencing; medium: yeast; setting: strong parent motif; reference: not given; reading: higher = stronger binding
Parent: BRCA2 docking peptide (human); PSIKRNLLNEFDR; partner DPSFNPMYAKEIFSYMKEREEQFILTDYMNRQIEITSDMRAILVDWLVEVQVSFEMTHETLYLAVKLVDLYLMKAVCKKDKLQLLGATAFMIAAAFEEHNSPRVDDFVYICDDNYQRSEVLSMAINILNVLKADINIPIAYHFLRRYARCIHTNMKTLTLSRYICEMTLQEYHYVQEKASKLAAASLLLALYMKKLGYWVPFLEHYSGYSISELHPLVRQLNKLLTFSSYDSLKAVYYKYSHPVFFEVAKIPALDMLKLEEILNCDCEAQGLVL
Substitution	normalised enrichment score
PSIKRNLLYEFDR [N9Y]	1.72
PSIKRNLLNEFDM [R13M]	0.878
PSIKRNLDNEFDR [L8D]	-0.166
PSIKRNLLNEWDR [F11W]	-0.0693
PSIKRNLLNEFDW [R13W]	1.3
PAIKRNLLNEFDR [S2A]	1.07
PSIKRNLQNEFDR [L8Q]	0.433
PWIKRNLLNEFDR [S2W]	0.855
PSIKRNLLNEHDR [F11H]	0.0979
PSIKLNLLNEFDR [R5L]	0.228
PSIKRNLLNIFDR [E10I]	0.154
PSYKRNLLNEFDR [I3Y]	0.721
PSIKRDLLNEFDR [N6D]	0.3
PSIKRNLLNEFDG [R13G]	1.01
PSIKRNLLNEFDF [R13F]	0.721
PSIKRNLLNEFLR [D12L]	0.29
PSICRNLLNEFDR [K4C]	1.5
PSIKRNLTNEFDR [L8T]	0.544
PSIKRNLLNEFWR [D12W]	1.03
PSIKINLLNEFDR [R5I]	0.561
GSIKRNLLNEFDR [P1G]	0.822
PSIKRNLLNMFDR [E10M]	0.0257
PSIKRNLENEFDR [L8E]	0.385
PSIKRNLLFEFDR [N9F]	0.598
PSIKRNLLNENDR [F11N]	-0.19

Set 4 — technique: RNA Bind-n-Seq; form: RNA; medium: in vitro; concentration: 365 nM; reference: no-protein control; reading: higher = stronger binding
Target: RNA binding protein fox-1 homolog 2, RRM domain, GST-SBP tag (RBFOX2, Homo sapiens, UniProt O43251-10, residues 100-194)
Setting: natural RNA segment, single round, ends assumed
Shared flanks, not repeated: GGGAGUUCUACAGUCCGACGAUC … UGGAAUUCUCGGGUGCCAA
Construct (chain): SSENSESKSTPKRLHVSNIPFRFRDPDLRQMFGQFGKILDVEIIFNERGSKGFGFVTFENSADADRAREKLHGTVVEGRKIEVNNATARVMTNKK
Sequence	RBNS enrichment (R)
UUGGUUUGGUUUCUUCUGUUCUGCACUUUGGAGUCCCUGGGUAUUCCACAUUACAAGUUGAUGUUAUAGGUGGGGGCUGGAAUUGUUGCCCUGGAUGUGGGGACCAAGGU	1.75
ACCCCUCCCCACAGAGGAAGCCACUAGGAGCUUAACUCAAUUAUGGGAGAACCUUAGACACUUCACCAAAUUCUGCAAUGACAGCUGGGGUAUUUUAAAGUUUAUGAUGA	0.358
AACAUAUGUAUUUGUAAAAAUGGUUUCCUGUGUCAAGUAUUUGUGCAGUCAGAGCUGACUUGUAAACUAUUCUUGUAAUAGCUCAUUAUUUUGAAAGAUUUAUAUAUGAU	0.362
CUGUGGCUUGUUAGCAUCAGAACCUCUCUGAAGACCAAACUUCCCUGUGUGGCCAGCAGAGGAAGCCUUGAGGAUAGAUCUCGGGUGACGUGGGAUUUUCUAAGCCUGAG	0.577
UCGGUUCCCGAGGCCUGGCCUUUCCCUCUCCUGCUGAGAACCAGAACCCACCAGGAGCACCACAGAGUCCUCCUCUUGGAAGGCAGAACUCCCUGAAAUCUGGAAUCAGG	0.316
CACACUGCCCAUGGUGGGUUUAAGUUACUGAAGUUCGAUUACUCAGGCCUGAUGAAUUUUUAAGACUGCUUUGUUGGUCAUUUGGCUGAUGGCUUCUUAUGUGCAUUCAA	0.417
GGCUUGGCUGCAGGACAGAGACUUGACUCCAUCCCAGCUCUGGUCUUGGCUGGGAUGGCACUACCCUGUGAGCCAAACACUUUAGGUGUAAGUAGGUACACUUGUGACGU	0.805
CUGAAGAGGCCUGGGGGGUGGUAUAUGGCCCCUCCCCAUCAGGCGCUAAGGGGACACCCCUUCCCCAGGUCUUUUAUUUGUUUAAGUUAUUUUUGCACAAAUGACUCUUU	0.43
CCAACAAAAAAAUAAAUAAAAAUAAAAGCAAAGAAAAGGCAGUGGCGCAUAUAUUCUGUGGUCCAGGCUGUUUCUAGUCUAUUGAUGAUGGAUGCUUAUAUUAGUUUUUU	0.391
UGUGAUUGAUAAAAAGAAGAUGAGUGUUAAUUAGCCUCCAGUGAAAAUAUACUGAAAGCCUGUUUUCAUUUGAUUCCAAUGUUUCUUCCAAAGAAUUCUGUAUAAACAUA	0.383
AGACCUGUUUUUGAAAGGACAGCACAGGAGGAGAAAAGUGACUGGGACGAUGCUUCCUCUCAUCCAAAACACAUGCAGAGUCACAUCCUCAUCCUAGUGUUUGGCAGUUU	0.507
GGGCAGGGGAACUCCUAAAAUAAUACAUGACCACUUCCUCAUUUCUGGGGAAGGAAAGGAGACUAGAGCAGCUGGUGUGCUCACCCCUCCCUAGUCACCUCCAUUAACCA	0.186

Other studies, line by line
Substance	target	test	test system	setting	how to read	endpoint	value
PhoQ, residues 284 288 289 292 302 303 SCCLKL	PhoP, residues 12 14 15 18 19 LHSVQ (Escherichia coli, UniProt P23836)	Sort-seq, refers to: YFP reporter	E. coli	PhoQ-PhoP variant library, added: 10 µM Mg2+	reference: high Mg2+ state, higher = stronger signaling	fold induction	2.6

Some of these lines once more (set 3):
Substitution	normalised enrichment score
PSYKRNLLNEFDR [I3Y]	0.721
PSIKRDLLNEFDR [N6D]	0.3
PSIKRNLLNEFDG [R13G]	1.01
PSIKRNLLNEFDF [R13F]	0.721
PSIKRNLLNEFLR [D12L]	0.29
PSICRNLLNEFDR [K4C]	1.5
PSIKRNLTNEFDR [L8T]	0.544
PSIKRNLLNEFWR [D12W]	1.03
PSIKINLLNEFDR [R5I]	0.561
GSIKRNLLNEFDR [P1G]	0.822
PSIKRNLLNMFDR [E10M]	0.0257
